Experimental data collected from several papers.
Compare with care: the assays were run in different laboratories.
Sequence of UniProt Q13546 (whole entry, looked up): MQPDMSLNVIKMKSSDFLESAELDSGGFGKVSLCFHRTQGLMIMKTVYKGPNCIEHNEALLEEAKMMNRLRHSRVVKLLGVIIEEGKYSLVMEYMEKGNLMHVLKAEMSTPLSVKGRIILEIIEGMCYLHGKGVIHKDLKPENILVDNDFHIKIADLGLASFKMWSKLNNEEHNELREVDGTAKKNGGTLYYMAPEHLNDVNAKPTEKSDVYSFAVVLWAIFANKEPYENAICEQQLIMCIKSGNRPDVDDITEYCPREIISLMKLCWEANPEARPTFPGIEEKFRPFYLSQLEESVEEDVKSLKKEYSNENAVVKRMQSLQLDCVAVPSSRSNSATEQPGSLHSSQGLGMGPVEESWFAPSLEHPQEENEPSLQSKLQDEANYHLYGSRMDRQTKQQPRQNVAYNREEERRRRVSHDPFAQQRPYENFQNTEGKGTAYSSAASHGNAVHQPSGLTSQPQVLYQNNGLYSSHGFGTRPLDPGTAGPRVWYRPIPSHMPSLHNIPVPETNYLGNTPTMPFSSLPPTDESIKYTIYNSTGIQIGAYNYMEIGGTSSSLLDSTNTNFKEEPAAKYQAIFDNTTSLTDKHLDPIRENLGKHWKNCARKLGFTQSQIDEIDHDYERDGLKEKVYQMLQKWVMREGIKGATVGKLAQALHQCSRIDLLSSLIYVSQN
Sequence of UniProt P46098 (whole entry, looked up): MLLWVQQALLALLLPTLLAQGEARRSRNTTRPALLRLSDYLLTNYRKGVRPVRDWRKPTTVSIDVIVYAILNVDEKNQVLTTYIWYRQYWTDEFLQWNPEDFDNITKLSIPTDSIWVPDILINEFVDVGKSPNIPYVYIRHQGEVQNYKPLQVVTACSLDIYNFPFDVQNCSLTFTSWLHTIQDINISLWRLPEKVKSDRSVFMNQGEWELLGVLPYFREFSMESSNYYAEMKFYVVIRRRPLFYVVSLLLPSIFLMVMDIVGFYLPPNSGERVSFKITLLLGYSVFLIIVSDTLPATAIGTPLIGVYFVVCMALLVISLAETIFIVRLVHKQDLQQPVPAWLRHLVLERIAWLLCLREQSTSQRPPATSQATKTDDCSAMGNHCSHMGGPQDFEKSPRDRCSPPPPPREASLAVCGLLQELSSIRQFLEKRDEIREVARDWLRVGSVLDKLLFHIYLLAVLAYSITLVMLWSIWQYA
Sequence of UniProt O60741 (whole entry, looked up): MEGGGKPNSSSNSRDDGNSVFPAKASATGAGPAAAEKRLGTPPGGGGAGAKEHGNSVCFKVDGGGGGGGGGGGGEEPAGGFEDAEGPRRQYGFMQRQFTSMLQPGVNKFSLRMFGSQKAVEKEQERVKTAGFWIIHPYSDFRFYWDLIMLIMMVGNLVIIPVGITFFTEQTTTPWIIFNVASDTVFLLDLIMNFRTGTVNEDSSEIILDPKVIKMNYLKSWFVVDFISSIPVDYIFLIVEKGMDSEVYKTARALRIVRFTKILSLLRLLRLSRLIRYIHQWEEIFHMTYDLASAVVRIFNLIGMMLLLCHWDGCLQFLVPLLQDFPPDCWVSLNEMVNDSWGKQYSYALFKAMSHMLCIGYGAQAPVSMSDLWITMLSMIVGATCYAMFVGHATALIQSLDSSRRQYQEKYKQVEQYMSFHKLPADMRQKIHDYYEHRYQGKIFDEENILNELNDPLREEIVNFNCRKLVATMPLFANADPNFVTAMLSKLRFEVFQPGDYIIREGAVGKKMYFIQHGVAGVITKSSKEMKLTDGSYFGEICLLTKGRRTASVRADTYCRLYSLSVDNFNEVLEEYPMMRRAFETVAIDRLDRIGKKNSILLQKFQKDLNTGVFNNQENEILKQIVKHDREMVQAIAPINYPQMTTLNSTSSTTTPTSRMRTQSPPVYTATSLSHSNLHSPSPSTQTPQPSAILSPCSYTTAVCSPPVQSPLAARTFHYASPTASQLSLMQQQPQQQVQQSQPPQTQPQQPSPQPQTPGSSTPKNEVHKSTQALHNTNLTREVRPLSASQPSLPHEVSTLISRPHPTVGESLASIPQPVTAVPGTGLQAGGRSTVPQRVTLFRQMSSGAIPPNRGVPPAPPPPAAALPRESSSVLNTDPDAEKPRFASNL
Sequence of UniProt O33336 (whole entry, looked up): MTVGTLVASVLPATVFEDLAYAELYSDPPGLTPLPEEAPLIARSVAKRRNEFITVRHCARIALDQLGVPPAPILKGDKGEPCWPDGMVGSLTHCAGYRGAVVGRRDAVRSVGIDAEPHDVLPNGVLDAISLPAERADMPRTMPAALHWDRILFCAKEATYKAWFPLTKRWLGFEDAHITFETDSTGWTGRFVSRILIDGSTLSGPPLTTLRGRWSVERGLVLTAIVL
Sequence of UniProt P30542 (whole entry, looked up): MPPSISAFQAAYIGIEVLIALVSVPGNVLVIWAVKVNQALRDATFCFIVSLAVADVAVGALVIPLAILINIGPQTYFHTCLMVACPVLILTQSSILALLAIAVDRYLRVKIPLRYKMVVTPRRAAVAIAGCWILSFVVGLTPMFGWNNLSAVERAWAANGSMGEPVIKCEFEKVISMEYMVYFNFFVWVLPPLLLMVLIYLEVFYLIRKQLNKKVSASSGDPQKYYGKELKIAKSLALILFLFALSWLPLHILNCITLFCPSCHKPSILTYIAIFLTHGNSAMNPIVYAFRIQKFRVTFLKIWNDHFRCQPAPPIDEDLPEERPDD
Sequence of UniProt Q99755 (whole entry, looked up): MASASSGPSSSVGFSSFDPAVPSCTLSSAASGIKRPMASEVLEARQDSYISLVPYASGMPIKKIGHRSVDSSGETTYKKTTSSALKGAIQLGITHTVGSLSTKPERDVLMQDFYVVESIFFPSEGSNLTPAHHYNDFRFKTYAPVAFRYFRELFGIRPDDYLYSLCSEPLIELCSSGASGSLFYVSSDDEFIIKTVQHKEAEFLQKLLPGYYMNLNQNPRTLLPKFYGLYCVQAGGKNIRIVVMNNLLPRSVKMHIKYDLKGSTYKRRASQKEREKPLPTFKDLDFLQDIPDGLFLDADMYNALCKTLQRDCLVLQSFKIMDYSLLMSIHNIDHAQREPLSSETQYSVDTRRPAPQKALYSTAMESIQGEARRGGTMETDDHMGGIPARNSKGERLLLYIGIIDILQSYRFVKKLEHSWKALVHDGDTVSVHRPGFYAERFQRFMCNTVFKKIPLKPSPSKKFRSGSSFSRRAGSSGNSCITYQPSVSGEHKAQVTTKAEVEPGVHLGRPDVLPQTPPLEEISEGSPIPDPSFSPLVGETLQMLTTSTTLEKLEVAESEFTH
Sequence of UniProt Q13705 (whole entry, looked up): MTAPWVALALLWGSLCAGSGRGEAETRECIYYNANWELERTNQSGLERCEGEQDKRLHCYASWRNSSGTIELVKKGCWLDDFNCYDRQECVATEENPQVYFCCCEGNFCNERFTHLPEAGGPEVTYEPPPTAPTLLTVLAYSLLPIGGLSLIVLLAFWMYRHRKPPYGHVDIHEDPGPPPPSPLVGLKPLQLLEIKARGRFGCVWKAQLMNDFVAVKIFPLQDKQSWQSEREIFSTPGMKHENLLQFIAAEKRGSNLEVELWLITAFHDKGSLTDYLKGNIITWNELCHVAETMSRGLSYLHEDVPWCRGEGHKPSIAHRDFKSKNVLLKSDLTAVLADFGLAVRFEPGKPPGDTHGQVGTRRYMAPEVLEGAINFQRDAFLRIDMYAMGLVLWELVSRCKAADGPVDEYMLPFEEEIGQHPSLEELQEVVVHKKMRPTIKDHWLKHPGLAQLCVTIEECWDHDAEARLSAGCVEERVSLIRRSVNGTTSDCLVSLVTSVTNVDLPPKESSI
Sequence of UniProt P41146 (whole entry, looked up): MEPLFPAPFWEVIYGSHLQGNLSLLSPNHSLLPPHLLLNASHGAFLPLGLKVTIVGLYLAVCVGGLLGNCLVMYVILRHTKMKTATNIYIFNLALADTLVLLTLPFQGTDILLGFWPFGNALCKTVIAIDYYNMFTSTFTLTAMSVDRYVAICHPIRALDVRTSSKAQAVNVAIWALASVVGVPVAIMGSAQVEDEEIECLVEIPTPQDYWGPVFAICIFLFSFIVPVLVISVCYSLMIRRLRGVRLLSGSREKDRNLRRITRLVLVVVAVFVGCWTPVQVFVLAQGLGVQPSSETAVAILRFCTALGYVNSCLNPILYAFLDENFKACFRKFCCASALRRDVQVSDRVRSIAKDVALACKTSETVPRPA
Sequence of UniProt Q8TDC3 (whole entry, looked up): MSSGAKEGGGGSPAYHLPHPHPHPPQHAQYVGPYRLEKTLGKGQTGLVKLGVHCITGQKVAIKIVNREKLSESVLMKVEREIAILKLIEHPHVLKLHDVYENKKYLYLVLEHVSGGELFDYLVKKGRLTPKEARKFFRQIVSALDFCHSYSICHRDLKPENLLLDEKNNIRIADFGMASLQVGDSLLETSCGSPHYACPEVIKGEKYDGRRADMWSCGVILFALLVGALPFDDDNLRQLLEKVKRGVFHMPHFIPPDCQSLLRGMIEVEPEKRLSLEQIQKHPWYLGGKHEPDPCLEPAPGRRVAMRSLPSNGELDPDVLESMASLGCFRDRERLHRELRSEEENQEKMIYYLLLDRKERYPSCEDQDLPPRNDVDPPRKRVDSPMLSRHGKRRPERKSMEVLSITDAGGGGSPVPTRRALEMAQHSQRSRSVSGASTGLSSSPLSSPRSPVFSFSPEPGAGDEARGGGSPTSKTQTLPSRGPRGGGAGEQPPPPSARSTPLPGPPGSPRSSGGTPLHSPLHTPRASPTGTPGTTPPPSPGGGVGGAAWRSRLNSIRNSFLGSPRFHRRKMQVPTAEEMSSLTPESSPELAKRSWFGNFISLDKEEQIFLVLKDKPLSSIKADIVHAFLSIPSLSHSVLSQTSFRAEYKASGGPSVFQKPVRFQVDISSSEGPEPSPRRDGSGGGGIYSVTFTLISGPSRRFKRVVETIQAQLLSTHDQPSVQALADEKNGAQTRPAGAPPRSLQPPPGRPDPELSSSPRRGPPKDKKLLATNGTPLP

Compound	target	test	setting	endpoint	result
COc1ncccc1-c1cnn2ccc(N3CCN(C(=O)OC(C)C)CC3)nc12	PIP5K1A (Homo sapiens, UniProt Q99755)	binding, competition with immobilised ligand	1 µM	remaining binding	100%
Nc1ncc(-c2nc(N3CCOCC3)nc(N3CCOCC3)n2)c(C(F)F)n1	ACVR2B (Homo sapiens, UniProt Q13705)	binding, competition with immobilised ligand	10 µM	remaining binding	100%
C#Cc1n[nH]c2c(-c3cn(C(C)c4ccccn4)c(=O)[nH]c3=O)cc(F)cc12 (stereo not shown)	PDPK1 (Homo sapiens, UniProt O15530)	enzyme activity, inhibitor	1 µM	inhibition	11.3%
Oc1cccc(N2C[C@H]3CC[C@@H](C2)N3CCCc2ccccc2)c1	Nociceptin receptor (OPRL1, Homo sapiens, UniProt P41146)	cAMP, agonist		Emax	0%
Cc1nn(C)cc1-c1nc2c(N3CCN(Cc4ccc(Cl)cc4)CC3)c(Cl)cnc2[nH]1	RIPK1 (Homo sapiens, UniProt Q13546)	binding, competition with immobilised ligand	1 µM	remaining binding	78%
CC(C)CC(=O)OC[C@H]1O[C@@](C#N)(c2ccc3c(N)ncnn23)[C@H](O)[C@@H]1O	ADORA1 (Homo sapiens, UniProt P30542)	cell-free assay	20 µM	inhibition	10%
Nc1c(Br)cc(Br)cc1CN[C@H]1CC[C@H](O)CC1	Potassium/sodium hyperpolarization-activated cyclic nucleotide-gated channel 1 (Homo sapiens, UniProt O60741)	ion current, inhibitor	3 µM	inhibition	-0.961%
CC(=O)NCCC(c1cccnc1)n1c(=S)[nH]c2ccc(Cl)cc2c1=O (stereo not shown)	4'-phosphopantetheinyl transferase PptT (Mycobacterium tuberculosis, UniProt O33336)	enzyme activity, inhibitor, FP		IC50	2.78 µM
CN1CCC[C@H]1c1cccnc1	HTR3A (Homo sapiens, UniProt P46098)	ligand displacement, radioligand	50 µM	inhibition	5.48%
[2H]c1c([2H])c([C@]2([2H])CCCN2C(=O)C(C)(C)Oc2ccc3cn[nH]c3c2)c([2H])c([2H])c1C([2H])([2H])[2H]	BRSK1 (Homo sapiens, UniProt Q8TDC3)	binding, competition with immobilised ligand	1 µM	remaining binding	80%

Excerpt of the above:
Compound	target	test	setting	endpoint	result
Oc1cccc(N2C[C@H]3CC[C@@H](C2)N3CCCc2ccccc2)c1	Nociceptin receptor (OPRL1, Homo sapiens, UniProt P41146)	cAMP, agonist		Emax	0%
